Measured values from different studies.
Protocols differ between the studies behind these lines.
Sample: plasma

The AUC(0-inf) of `C[Si]1(C)CNC(=O)c2ccccc21` is reported as 3180 ng·h/mL (rat; oral, 5 mg/kg, single dose).
With `Cc1cc(N2CCC(C#N)(C3(C)CC3)C2=O)cc(C(=O)NCc2cc(F)cc(-c3cnn(C)c3)c2)n1` (racemic) the AUC(0-inf) was 5.3 µM·h (male Sprague-Dawley rat; oral, 3 mg/kg).
`CC12CC3CC(C)(C1)CC(NC(=O)Nc1ccc(C(=O)N4CCC[C@H](C(N)=O)C4)cc1F)(C3)C2` has an AUC(0-inf) of 8.02 µM·h (Sprague-Dawley rat; oral, 50 mg/kg).
The AUC(0-inf) of `Cn1cc(-c2cc(N3CCCCS3(=O)=O)ccc2N[C@H]2CC[C@H](C)CC2)c2cc[nH]c2c1=O` (stereo in doubt) is reported as 300 ng·h/mL (Sprague-Dawley rat; intravenous, 1 mg/kg).
With `CCNC(=O)[C@@H]1CCCN1C(=O)[C@H](CCCNC(=N)N)NC(=O)[C@H](CC(C)C)NC(=O)[C@@H](CC(C)C)NC(=O)[C@H](Cc1ccc(O)cc1)NC(=O)[C@H](CO)NC(=O)[C@H](Cc1c[nH]c2ccccc12)NC(=O)[C@H](Cc1c[nH]cn1)NC(=O)[C@@H]1CCC(=O)N1` the AUC(0-inf) was 9840 ng·h/mL (male Sprague-Dawley rat; subcutaneous, 12.5 mg/kg, single dose).
`COc1cc(NC(C)=O)c2c(c1O)-c1c(OC)c(OC)cc3c1C(C2)N(C)CC3` (centres unmarked) has an AUC(0-inf) of 59300 ng·h/mL (HPLC; male Wistar rat; oral, 200 mg/kg).
`Nc1nc(Cl)nc2c1ncn2Cc1cc(OCC(F)F)cc(OC(F)F)c1` has an AUC(0-inf) of 10600 ng·h/mL (Sprague-Dawley rat; intravenous, 2.5 mg/kg).
The AUC(0-inf) of `Cn1cc(-c2cc(N3CCCS3(=O)=O)ccc2N[C@H]2CC[C@H](C)CC2)c2cc[nH]c2c1=O` is reported as 261 ng·h/mL (Sprague-Dawley rat; intravenous, 1 mg/kg).
For `CNC(=O)N[C@]1(C)CCC[C@@]2(C)C3CC[C@@]4(C)C[C@]3(CCC21)CC4=O` (single isomer, unassigned), the AUC(0-inf) was 1090 ng·h/mL (male Sprague-Dawley rat; intravenous, 2 mg/kg).
For `O=C(N[C@@H](CC1CCCCC1)C(=O)N[C@@H](C[C@H]1CCNC1=O)C(=O)C(=O)NC1CC1)OCc1cccc(Cl)c1`, the AUC(0-inf) was 4200 ng·h/mL (female Sprague-Dawley rat; oral, 10 mg/kg, single dose).
With `NC(=O)c1cccnc1.O.O=c1[nH]cc(F)c(=O)[nH]1.O=c1[nH]cc(F)c(=O)[nH]1.O=c1[nH]cc(F)c(=O)[nH]1` the AUC(0-inf) was 14.1 µM·h (rat; oral, 0.06 mmol/kg).
`CCCN(c1ccc(C(=O)NCCC(=O)O)cc1)S(=O)(=O)c1cc(C)c(-c2ccc(C(C)(C)C)cc2)c(C)c1` has an AUC(0-inf) of 1440 ng·h/mL (rat; intravenous, 2 mg/kg).
With `CC12CC3CC(C)(C1)CC(NC(=O)Nc1ccc(C(=O)N4CCCC(C(N)=O)C4)cc1)(C3)C2` (centres unmarked) the AUC(0-inf) was 0.32 µM·h (Sprague-Dawley rat; oral, 10 mg/kg).
With `CSCOC1C(=O)C2(C)C(OCSC)CC3OCC3(OC(C)=O)C2C(OC(=O)c2ccccc2)C2(O)CC(OC(=O)C(O)C(C=C(C)C)NC(=O)OC(C)(C)C)C(C)=C1C2(C)C` (centres unmarked) the AUC(0-inf) was 1140 ng·h/mL (male Sprague-Dawley rat; intravenous, 4 mg/kg).
